Experimental data of several laboratories.
Numbered parts are unrelated; each lists some results of a single study.
UniProt Q8IW41, sequence (whole entry, looked up): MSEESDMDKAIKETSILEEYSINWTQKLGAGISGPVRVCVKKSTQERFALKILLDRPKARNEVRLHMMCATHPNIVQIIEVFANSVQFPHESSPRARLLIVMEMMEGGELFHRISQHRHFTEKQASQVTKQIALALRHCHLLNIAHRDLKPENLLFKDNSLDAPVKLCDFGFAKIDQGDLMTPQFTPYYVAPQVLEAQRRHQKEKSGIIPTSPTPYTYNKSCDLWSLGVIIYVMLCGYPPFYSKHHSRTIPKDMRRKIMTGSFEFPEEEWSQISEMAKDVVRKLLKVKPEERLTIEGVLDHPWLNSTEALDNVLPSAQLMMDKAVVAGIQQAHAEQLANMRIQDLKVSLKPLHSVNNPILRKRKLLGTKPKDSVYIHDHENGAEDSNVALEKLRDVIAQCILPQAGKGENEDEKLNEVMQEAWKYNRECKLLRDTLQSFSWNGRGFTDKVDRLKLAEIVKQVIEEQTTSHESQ
UniProt Q9P289, sequence (whole entry, looked up): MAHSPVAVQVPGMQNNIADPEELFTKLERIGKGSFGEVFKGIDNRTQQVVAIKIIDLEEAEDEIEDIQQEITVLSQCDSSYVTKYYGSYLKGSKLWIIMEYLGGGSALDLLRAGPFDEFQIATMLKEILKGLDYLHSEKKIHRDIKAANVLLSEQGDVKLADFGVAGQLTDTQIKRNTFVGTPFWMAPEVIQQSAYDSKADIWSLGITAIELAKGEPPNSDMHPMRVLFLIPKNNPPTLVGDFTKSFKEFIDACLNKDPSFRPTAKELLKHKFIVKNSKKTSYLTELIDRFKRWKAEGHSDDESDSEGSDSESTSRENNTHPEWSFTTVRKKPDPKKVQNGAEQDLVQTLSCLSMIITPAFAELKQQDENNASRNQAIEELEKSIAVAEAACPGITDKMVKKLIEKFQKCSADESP
UniProt P21918, sequence (whole entry, looked up): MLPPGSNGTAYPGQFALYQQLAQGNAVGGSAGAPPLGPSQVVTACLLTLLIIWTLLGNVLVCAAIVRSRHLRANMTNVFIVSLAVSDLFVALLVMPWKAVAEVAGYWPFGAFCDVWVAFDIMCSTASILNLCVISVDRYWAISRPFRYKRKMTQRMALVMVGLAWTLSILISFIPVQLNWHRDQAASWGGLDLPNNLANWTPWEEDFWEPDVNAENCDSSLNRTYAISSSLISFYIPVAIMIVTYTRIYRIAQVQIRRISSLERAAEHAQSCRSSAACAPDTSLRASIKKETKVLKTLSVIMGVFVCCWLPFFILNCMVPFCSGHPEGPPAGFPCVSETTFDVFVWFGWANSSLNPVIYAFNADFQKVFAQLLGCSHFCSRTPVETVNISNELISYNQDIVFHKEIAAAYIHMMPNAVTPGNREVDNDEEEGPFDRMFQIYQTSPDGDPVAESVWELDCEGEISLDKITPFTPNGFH
UniProt P08908, sequence (whole entry, looked up): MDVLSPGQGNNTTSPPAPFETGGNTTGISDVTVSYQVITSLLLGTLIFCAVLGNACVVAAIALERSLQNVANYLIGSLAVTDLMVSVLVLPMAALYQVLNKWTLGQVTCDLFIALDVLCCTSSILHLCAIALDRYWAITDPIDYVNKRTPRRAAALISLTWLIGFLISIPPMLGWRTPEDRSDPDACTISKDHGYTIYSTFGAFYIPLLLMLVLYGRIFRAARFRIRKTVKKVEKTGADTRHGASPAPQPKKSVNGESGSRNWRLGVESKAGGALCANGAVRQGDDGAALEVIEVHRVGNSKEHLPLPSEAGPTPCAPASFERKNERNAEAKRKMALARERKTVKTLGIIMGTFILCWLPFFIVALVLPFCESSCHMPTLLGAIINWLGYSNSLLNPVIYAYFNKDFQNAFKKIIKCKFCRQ
UniProt Q8TDX7, sequence (whole entry, looked up): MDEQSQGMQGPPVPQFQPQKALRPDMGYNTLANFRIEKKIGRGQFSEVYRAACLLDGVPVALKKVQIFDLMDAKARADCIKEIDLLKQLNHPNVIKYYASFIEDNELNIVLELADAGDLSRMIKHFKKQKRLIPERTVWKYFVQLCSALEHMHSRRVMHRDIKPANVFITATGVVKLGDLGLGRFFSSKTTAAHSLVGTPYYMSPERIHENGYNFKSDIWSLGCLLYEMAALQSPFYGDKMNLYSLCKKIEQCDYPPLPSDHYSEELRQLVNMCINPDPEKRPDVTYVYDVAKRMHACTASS
UniProt Q9Y6E0, sequence (whole entry, looked up): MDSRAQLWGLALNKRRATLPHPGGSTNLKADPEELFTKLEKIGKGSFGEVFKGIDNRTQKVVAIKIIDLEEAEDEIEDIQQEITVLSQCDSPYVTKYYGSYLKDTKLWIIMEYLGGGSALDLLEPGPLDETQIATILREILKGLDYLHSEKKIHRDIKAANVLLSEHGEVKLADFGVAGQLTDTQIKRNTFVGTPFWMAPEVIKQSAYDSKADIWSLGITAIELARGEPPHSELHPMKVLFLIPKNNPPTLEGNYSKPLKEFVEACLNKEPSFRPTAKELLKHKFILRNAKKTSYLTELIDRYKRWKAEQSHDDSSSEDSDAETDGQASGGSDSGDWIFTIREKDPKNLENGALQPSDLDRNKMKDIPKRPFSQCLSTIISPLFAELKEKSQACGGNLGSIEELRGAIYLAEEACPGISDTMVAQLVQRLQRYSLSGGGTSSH
UniProt P31645, sequence (whole entry, looked up): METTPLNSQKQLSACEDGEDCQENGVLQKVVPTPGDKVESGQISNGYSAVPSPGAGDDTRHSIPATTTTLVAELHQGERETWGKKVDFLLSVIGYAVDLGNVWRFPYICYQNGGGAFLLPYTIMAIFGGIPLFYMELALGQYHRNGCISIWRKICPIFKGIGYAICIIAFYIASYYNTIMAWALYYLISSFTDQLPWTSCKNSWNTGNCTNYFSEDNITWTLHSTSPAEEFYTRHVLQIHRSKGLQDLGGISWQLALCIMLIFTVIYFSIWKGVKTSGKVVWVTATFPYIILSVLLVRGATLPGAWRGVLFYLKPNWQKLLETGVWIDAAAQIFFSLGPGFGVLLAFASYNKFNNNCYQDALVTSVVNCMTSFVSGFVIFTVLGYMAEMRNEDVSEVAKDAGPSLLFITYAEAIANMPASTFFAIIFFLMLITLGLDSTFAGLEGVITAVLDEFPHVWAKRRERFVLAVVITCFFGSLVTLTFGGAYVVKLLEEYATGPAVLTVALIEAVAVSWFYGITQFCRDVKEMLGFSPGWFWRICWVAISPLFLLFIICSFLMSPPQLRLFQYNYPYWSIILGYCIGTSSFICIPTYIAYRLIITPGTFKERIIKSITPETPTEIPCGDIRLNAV
UniProt Q9BUB5, sequence (whole entry, looked up): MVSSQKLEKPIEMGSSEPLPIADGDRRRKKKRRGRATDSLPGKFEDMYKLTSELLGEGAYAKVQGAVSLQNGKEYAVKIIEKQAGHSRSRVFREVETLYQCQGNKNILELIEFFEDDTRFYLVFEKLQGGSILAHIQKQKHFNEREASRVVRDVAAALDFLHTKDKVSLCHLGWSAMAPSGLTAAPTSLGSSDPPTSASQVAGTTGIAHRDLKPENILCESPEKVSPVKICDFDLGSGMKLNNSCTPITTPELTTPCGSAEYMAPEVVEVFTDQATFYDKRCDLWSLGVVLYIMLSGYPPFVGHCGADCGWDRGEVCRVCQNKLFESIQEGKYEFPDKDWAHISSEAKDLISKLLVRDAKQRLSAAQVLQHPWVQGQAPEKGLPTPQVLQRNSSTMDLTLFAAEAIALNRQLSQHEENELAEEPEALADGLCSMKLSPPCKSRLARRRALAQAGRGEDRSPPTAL
UniProt P35372, sequence (whole entry, looked up): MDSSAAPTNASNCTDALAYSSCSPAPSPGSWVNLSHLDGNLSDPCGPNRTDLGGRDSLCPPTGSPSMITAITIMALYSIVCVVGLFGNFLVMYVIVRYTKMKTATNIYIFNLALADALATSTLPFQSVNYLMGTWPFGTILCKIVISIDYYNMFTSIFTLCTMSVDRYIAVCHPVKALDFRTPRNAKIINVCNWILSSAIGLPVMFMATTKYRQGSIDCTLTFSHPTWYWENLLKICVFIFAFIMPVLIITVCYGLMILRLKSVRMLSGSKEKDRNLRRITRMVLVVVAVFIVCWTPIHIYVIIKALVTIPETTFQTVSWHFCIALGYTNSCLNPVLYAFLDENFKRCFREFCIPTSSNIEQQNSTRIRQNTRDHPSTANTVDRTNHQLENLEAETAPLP

Study 1
Cell line: mouse MPNST tumor cells
Technique: high-content nuclear imaging
Refers to: cell number
Tested at: 10 µM
Time: 12 h
Notes: mean of 2 replicates
Reference: plate mean
Direction: higher = more cells
Quantity: nuclei count
O=C1CN(Cc2ccc(-c3ccc(F)c(CN4CCS(=O)(=O)CC4)n3)cc2)C(=O)N1C1CC1: 0.528 z-score
CCC(=O)O[C@H]1CC[C@H]2[C@@H]3CCC4=CC(=O)CC[C@]4(C)[C@H]3CC[C@]12C: 4.35 z-score
Cc1cc(C(=O)CN2CCCC2)c(C)n1-c1ccc(F)cc1: 1.89 z-score
C[N+]1([O-])C2CC(OC(=O)C(CO)c3ccccc3)CC1C1OC12 (centres unmarked): 1.29 z-score

Study 2
SMILES: CCn1cnc2c(Nc3cccc(Cl)c3)nc(N[C@H]3CCCC[C@H]3N)nc21
Read-out: enzyme activity
Mode: inhibitor
Tested at: 0.5 µM
Reference: control
Quantity: remaining activity
MAPKAPK5 (Homo sapiens, UniProt Q8IW41): 98.3%
STK26 (Homo sapiens, UniProt Q9P289): 104%
NEK7 (Homo sapiens, UniProt Q8TDX7): 86%
STK24 (Homo sapiens, UniProt Q9Y6E0): 79%
EPHA1 (Homo sapiens, UniProt P21709): 79.6%
MKNK1 (Homo sapiens, UniProt Q9BUB5): 101%

Study 3
SMILES: CC(=O)C1=C(C)N(c2cccc(C(F)(F)F)c2)C(=O)N[C@H]1c1ccc(C#N)nc1
Tested at: 10 µM
Quantity: inhibition
SLC6A4 (Homo sapiens, UniProt P31645); cell-free assay: 2.85%
DRD5 (Homo sapiens, UniProt P21918); ligand displacement: 5.12%
HTR1A (Homo sapiens, UniProt P08908); ligand displacement: 3.63%
OPRM1 (Homo sapiens, UniProt P35372); ligand displacement: 2.02%

Study 4
Cell line: Huh-7
Tested at: 10 µM
Time: 24 h
Quantity: viability
C=CCC1(C(C)CCC)C(=O)N=C(S)NC1=O (centres unmarked): 98.9%
O=C1CC[C@@]2(O)[C@H]3Cc4ccc(O)c5c4[C@@]2(CCN3CC2CC2)[C@H]1O5: 99.4%
CC(C)CC(N(C)C)C1(c2ccc(Cl)cc2)CCC1 (centres unmarked): 98.8%

Repeated from above (study 2):
MAPKAPK5 (Homo sapiens, UniProt Q8IW41): 98.3%
